Measurements pooled from the literature.
A part holds a random share of what one study measured.

Study 1
Target: RNA binding protein fox-1 homolog 2, RRM domain, GST-SBP tag (RBFOX2, Homo sapiens, UniProt O43251-10, residues 100-194)
Technique: RNA Bind-n-Seq
Form: RNA
Matrix: in vitro
Tested at: 365 nM
Setting: natural RNA segment, single round, ends assumed
Reference: no-protein control
Direction: higher = stronger binding
Shared flanks, not repeated: GGGAGUUCUACAGUCCGACGAUC … UGGAAUUCUCGGGUGCCAA
Target sequence (chain): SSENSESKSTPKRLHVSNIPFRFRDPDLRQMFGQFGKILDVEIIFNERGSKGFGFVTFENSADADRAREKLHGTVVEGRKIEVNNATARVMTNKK
Strand | RBNS enrichment (R)
GCAGUGCAGAUCGGAAUUCCCAUAUGUCUGAGUGGGUAUUUUUAGACAGAAUCCACUCCUAAGUUAGGACAUGGAGCCCAGAUACUAUGAUACCAAAUUCAGGGGUGUCA | 0.254
GGCUCCCAAGGUUCUGCAGGAAAGCAGACCUGCACACAGAUCCCGUGGCUGCUGAAAAGACACAUGUUCACAUGGAGACAAACCAAGCUGCUCGCUCUCGGCUGUAUGCA | 2.86
AGUUGUCCUCUGAUAUUUUCACAGCCUGUUAGUGGCGGCUGAUCUGUAGAGGUAUGAAAAUACAGCCCCAAAGGGGGAAUUUGUCAUGGGGAAGGGCCAGCCACUGACUA | 1.16
CUCAGCUGCCUCACCCCCUGCACAUGUGCCUGGGGUGUGGCCUAGAAGGGAGUGAUGUUCUUACUCUGGUGGUCUGUGCUUCUGAACACAGGCUACAUGCACACACUGAC | 0.281
AGUGAUUCUUGCACAUGAAUUGUCACAUAUUAUAUGUGUUUUUUAAAGAGCCUCAGUCUGACUGAUUUCAAACACUUUUUUUCUCCUGUGUAUUGCUUUUAAGAGAGCCA | 0.64
AUUAAGGAAAAAUGUUUUUAAUAUACAUUCUUAUUUUGUCCCACCCCUCCAGAAAUAAGCUGGAAAUCUUAACUUUUUGGGGGGUCUUUUUUGGUGUUUUAAUGGGCCCA | 0.451
UUGUCUUAGACACUGUGGUUGCAAAACCCACGGAAAGCCUCAUUUGUGUGGAAAGUCAGAGGAAAAAUGAUCCAGUGGACACUUGGGGAUUAUCUGUCAUUCAAGAUCCU | 0.43
AAAAUAUUUUUAAAAGAUCUUCAAAAGUAAUGCCUCUGUCUAGCAUGCCAACAAGAAUGCAUUGAUAUUGUGAACAUUUGUGAUAUAUGUAUUAAUAAAUAGAGCAAUUA | 12.9
GACGAUGUUACAGACUCUGUUUUCUGCCUGGCGUUUCACUUGUGUCUGCUCCUAGCCUGUGCUCUGCCAGCAGCACAGACAUCUGCUCCAUCAGACCUCUUCCAUUUUGC | 0.386
AGCUUAAUGUGCCCUCUCCCCCCAACAACCUGCAGGUUCACAGCACCAGCCACACAGCGGUAGGGAUGAAAUAGUGACAUAAUAUAUUCUAUUUUUGUAACCUUCCUAUU | 0.594
UAGAUGGCGAACUUGAUGAAAAGUAUAAGAAGGUAGAAAGUUUAAUUGCCCAAAAAACUGAAGAGUCAGCAGAUGCCAGGAGGAAAGCUGAGCUGCUACAAAAUGAAGCA | 2.55
GGGUCAGGGUGGAACAGGGACAGUUUGGUGGUUGCGGGGCCCUGACUCCCUGGGCUCCCCCCUGCCUUCAUCUCACAAGAAACUUCCUGAUGCAUCAAACUUGAGUUUUU | 0.765

Study 2
Target: RING finger protein unkempt homolog, zinc fingers 1-6, GST-SBP tag (UNK, Homo sapiens, UniProt Q9C0B0, residues 30-357)
Technique: RNA Bind-n-Seq
Form: RNA
Matrix: in vitro
Tested at: not given
Setting: RNA with constant flanks, ends assumed
Reference: input RNA pool
Direction: higher = stronger binding
Shared flanks, not repeated: GGGAGUUCUACAGUCCGACGAUC … CAACAGAGGAUUGAGCAUCA
Target sequence (chain): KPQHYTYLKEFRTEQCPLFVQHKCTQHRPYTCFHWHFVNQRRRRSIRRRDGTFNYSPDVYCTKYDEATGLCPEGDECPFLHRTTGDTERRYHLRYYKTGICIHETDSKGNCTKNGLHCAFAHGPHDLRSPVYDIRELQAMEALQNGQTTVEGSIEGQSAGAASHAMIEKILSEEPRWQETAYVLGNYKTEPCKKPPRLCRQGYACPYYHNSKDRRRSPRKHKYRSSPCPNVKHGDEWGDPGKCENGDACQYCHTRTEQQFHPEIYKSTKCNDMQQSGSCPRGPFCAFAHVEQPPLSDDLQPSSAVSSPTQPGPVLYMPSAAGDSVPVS
Strand | bound/input enrichment
GCUGGAUCUUCUAAAUACCAGUGGGGCAUUAUGAAAUCCCUUGGCCUGUCUGAUGAAGAGACCGUAAAAUUUUCUGAAGCAGAACAUUGGCUUGAUUAUUUCCCGCCACUGGCUAUUCAG | 0.102 ratio
CGGGGGAUGAGUGACAGAGAGCGUCCUAUGCCUUGGAGACUGUCAUGGCAUAAGCUGUGCCCGCACCUCCUCAGGAAAUGAGAUUGAUUUUUACAACAGCCAAUAACGUUUGCACUUUAU | 0.0951 ratio
AAGGAAAUGCUGGCCGCAAACCCUCAGGAUCGCCCUGAUGCUUUUGAACUAGAACUCAGAUCCGUCCAAAUUGCAUUUAAAGACAGCAGCUGGGAGACGUGACCUACUGCUUGCAAGCAU | 0.136 ratio
AAAGGAAAGGAAGUAGAUAACUUUGUGGACAAAUUAAAAUCUGAAGGUGAAACCAUCAUGUCCUCCCGUAUGGGCAAGCGUACUUCUGAAGCAACCAAAAUGCAUGCUCCACCCAUUAAU | 0.146 ratio
AAUUCAUCUAAAGAUGUCUCUGGUGAUUUUUAUAUGUUCCGCUAUAUAAUUGAUGCUUUACCGUUUUAUCAUAAUCCAACAACUUCAGUUAUAUUUAAUUAUUGUUAAGGAGUUUAAGAC | 0.396 ratio
UCACCGAACUGCAGCACCCAGGCGUCGCUUUCUGCGGAGCUCUGCUUGCCAGUCAGCGAGCCGCACUCCUUGGAGAGCAAGUUGAACCCUUCGGCCUUGACCUCCGCCACCCGAUUGGGG | 0.0583 ratio

Study 3
Sequence: SAPSAPIRLPHTAALS
Form: peptide
Direction: direction not given
tested on | assay | system | setting | enrichment score
Saccharomyces cerevisiae | yeast growth, competitive growth deep sequencing | unfused Cln2 | peptide tiling library | 0.705
human cyclin D3-Cln2 fusion | yeast growth, competitive growth deep sequencing | Saccharomyces cerevisiae | peptide tiling library | 1.2
Saccharomyces cerevisiae | mating arrest growth, competitive growth deep sequencing | no Cln2 overexpression | peptide tiling library | -0.192
human cyclin A1 | cyclin docking binding, pooled competitive growth screen | yeast cyclin A1-Cln2 system | – | -0.166
human cyclin B3-Cln2 fusion | yeast growth, competitive growth deep sequencing | Saccharomyces cerevisiae | peptide tiling library | 0.81
human cyclin A2-Cln2 fusion | yeast growth, competitive growth deep sequencing | Saccharomyces cerevisiae | peptide tiling library | 0.104
human cyclin B2-Cln2 fusion | yeast growth, competitive growth deep sequencing | Saccharomyces cerevisiae | peptide tiling library | 0.563

Study 4
Target: Histone acetyltransferase KAT6A, winged helix 2, GST fusion (KAT6A, Homo sapiens, UniProt Q92794, residues 85-181)
Technique: protein binding microarray
Form: double-stranded DNA, one strand shown
Matrix: in vitro
Tested at: not given
Setting: 8-mer, flanks averaged, mean of 2 arrays, mostly near background
Reference: not given
Direction: higher = stronger binding
Target sequence (chain): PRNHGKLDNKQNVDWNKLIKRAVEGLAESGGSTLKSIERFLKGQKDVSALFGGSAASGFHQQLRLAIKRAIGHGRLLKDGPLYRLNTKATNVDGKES
Strand | E-score
CTCTCCTA | -0.0561
AGGCGCCT | 0.107
AGCATCGG | 0.107
ATCGACCG | 0.00402
AGGACTCC | -0.0881
ACGGACGC | -0.00918
GAGTAAAA | 0.0696
AGCACGAG | 0.163
GAATAGAA | 0.0424
ACCATTCT | -0.197
GGCTTAAA | 0.19
GTAACTGA | -0.233
AATCGTAC | -0.19
TAACGAAA | 0.0978
AAGTTCCG | -0.0625
CTAGTGAC | -0.00893
CTCGTATC | -0.015
AGCTCGGC | 0.053
ATATTCCC | 0.0157
ATTAACTG | -0.0618
AGACAATG | -0.135
GACGTGAA | -0.061
ACGCGTCA | 0.055
AGCCCGCG | 0.169
CGATAATC | -0.218

Study 5
Target: Prothrombin, mature alpha-thrombin (F2, Homo sapiens, UniProt P00734)
Technique: aptamer microarray, sandwich
Form: DNA with 2'F-ANA
Matrix: in vitro
Tested at: 200 nM
Setting: whole 15-mer aptamer, many near background
Added: Cy3 exosite-II aptamer, 400 nM
Direction: higher = stronger binding
Strand: GGTTGGTGTGGTTGG
Modification | mean fluorescence intensity
2'F-ANA at 2 3 4 5 7 8 10 11 12 13 14 | 50.3 a.u.
2'F-ANA at 5 6 7 10 11 12 14 15 | 187 a.u.
2'F-ANA at 1 4 5 7 8 9 15 | 66 a.u.
2'F-ANA at 1 3 4 5 8 10 12 14 15 | 56.4 a.u.
2'F-ANA at 1 3 5 6 7 10 11 12 13 14 15 | 74.2 a.u.
2'F-ANA at 1 2 4 6 10 11 12 14 15 | 49 a.u.
2'F-ANA at 1 3 4 8 9 10 11 12 15 | 75.9 a.u.
2'F-ANA at 4 7 10 14 15 | 59.3 a.u.
2'F-ANA at 2 7 8 9 11 14 15 | 142 a.u.
2'F-ANA at 3 11 13 15 | 859 a.u.
2'F-ANA at 2 5 7 8 10 12 | 64.4 a.u.
2'F-ANA at 1 3 4 9 10 13 14 | 56.6 a.u.
2'F-ANA at 1 5 7 8 9 11 13 14 | 78.9 a.u.
2'F-ANA at 2 3 4 9 11 14 | 270 a.u.
2'F-ANA at 1 2 3 4 5 7 8 11 12 13 | 87.2 a.u.
2'F-ANA at 1 5 7 8 10 11 12 13 14 | 47.3 a.u.
2'F-ANA at 2 5 6 7 8 9 10 14 15 | 71.2 a.u.
2'F-ANA at 3 6 7 9 10 13 | 421 a.u.
2'F-ANA at 1 2 7 9 15 | 175 a.u.
2'F-ANA at 1 3 4 5 7 8 10 14 15 | 46.5 a.u.
2'F-ANA at 2 5 7 12 | 178 a.u.
2'F-ANA at 2 3 4 6 9 10 12 15 | 279 a.u.
2'F-ANA at 2 3 5 6 7 9 11 12 14 15 | 53 a.u.
2'F-ANA at 1 2 3 5 6 8 9 15 | 95.9 a.u.
2'F-ANA at 1 2 4 7 9 11 13 | 104 a.u.

Study 6
Target: Interferon regulatory factor 3, full length, phosphomimetic (IRF3, Homo sapiens, UniProt Q14653, residues 1-427, S386D/S396D/S398D/S402D/T404D/S405D)
Technique: protein-binding microarray
Form: double-stranded DNA, one strand shown
Matrix: in vitro
Tested at: 2540 nM top
Setting: 60-bp whole probe
Added: salmon DNA 0.4 mg/ml
Reference: random background probes
Direction: higher = stronger binding
Shared flanks, not repeated: GCCTAGCAC … GTCTTGATTCGCTTGACGCTGCTG
Residues (chain): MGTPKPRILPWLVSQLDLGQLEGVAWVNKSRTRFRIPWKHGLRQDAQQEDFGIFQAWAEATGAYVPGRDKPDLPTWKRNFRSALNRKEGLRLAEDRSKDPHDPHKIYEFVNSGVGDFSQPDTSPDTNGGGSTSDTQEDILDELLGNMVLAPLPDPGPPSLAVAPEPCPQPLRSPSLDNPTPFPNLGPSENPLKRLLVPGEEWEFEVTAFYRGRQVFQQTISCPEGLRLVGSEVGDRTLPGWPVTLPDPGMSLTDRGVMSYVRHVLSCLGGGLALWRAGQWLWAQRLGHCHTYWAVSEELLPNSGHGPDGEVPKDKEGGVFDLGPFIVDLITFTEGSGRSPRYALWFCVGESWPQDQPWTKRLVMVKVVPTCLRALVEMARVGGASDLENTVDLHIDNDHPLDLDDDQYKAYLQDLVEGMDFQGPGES
Strand | fitted relative affinity
GACGGTTTCGGGTATCGGGAGGTGCTA | 4.52 z-score
GACGAACTGGGATATCGAGACGTGCTA | -0.264 z-score
TTAGGCATCGGGACTGGGTTAGTGCTA | -1.21 z-score
TTAGAACCGAGTCTCGATTAGTGCTAG | 0.0624 z-score
TCACCTTTCCTTTGCCTACTGTGCTAG | 3.5 z-score
CCCATTCTCAGCCCTGCGCATGTGCTA | 2.59 z-score
GACGGACTGGGTATCGGCACGTGCTAG | -0.434 z-score
TTAGAACTGCTTCTCCTTTAGTGCTAG | -0.0843 z-score
CCTCCTCTCTCTTTCCACTTGTGCTAG | 1.7 z-score
TACTCTTGTGACTATGGACCGTGCTAG | -0.11 z-score
GACGGCATCGGGACTGGGGACGTGCTA | -1.06 z-score
TTAGCTATCGACTATCGGTTAGTGCTA | -0.136 z-score
GACGATATCGGGATTGGAGACGTGCTA | 0.259 z-score
TCAGTTGTCCAGGCTGGTACTGTGCTA | -0.135 z-score
GACGAACTGAGAATGGAGACGTGCTAG | 0.149 z-score
CCAACTCTGTTTTCGCTTTCTGTGCTA | 3.15 z-score
TTAGAACTTGGGACTGGATTAGTGCTA | -0.658 z-score
TCATGTCTGCCTTTCAAACTGTGCTAG | 0.396 z-score
GACGGACTGGGGTTTCGCGACGTGCTA | -0.661 z-score
GCCGGTATCCTTTTCCTGACGTGCTAG | 7.75 z-score
GACGGACTGGGAATCGGGACGTGCTAG | -0.602 z-score
GACGGTATCGGTAACGGGACGTGCTAG | 2.03 z-score
TCATTTTTCTAACTAAAACTGTGCTAG | 2.32 z-score
TTAGATTCTAGTTTCGATTAGTGCTAG | 3.83 z-score
ACTCAGCTCCTCTTCCAGGCGTGCTAG | 0.26 z-score
